Assay results from different studies.
Every numbered part comes from another study and shows a few of its results, in no order.
Chain of UniProt Q9NR20 (whole entry, looked up): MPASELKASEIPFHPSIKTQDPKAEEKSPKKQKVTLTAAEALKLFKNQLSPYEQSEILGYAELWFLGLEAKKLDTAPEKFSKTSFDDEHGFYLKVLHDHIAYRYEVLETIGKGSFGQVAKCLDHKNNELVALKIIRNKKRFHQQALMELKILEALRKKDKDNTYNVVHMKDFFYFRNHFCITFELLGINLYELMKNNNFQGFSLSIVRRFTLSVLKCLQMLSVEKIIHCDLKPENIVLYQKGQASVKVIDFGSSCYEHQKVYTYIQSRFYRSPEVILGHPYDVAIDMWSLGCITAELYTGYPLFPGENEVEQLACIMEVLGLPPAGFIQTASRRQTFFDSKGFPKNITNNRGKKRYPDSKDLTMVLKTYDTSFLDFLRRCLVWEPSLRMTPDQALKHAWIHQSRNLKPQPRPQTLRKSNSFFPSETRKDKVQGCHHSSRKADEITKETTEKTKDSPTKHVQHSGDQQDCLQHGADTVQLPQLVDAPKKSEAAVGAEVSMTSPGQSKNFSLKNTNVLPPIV

Set 1
Target: Centromere-binding protein 1, full length, N-terminal tag (CBF1, Saccharomyces cerevisiae, UniProt P17106, residues 1-351)
Chain of UniProt P17106 (whole entry, looked up): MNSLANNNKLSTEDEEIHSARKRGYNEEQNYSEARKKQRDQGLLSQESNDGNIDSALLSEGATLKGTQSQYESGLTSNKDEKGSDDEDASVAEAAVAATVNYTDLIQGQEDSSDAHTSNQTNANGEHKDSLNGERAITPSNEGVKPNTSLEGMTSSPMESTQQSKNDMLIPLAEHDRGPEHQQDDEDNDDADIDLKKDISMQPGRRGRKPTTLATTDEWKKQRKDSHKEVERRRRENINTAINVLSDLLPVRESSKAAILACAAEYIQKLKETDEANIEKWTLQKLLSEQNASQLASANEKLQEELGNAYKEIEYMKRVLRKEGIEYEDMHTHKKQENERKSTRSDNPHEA
Method: protein-binding microarray
Form: double-stranded DNA, one strand shown
Sample: in vitro
Tested at: 0.8 µM
Notes: whole 60-bp probe, no competitor
Reading: higher = stronger binding
`GAACTAATCCAGCATTCCGTGATCATAGTTTAATAGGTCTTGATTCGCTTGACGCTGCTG` gave a fluorescence intensity of 621 a.u.
The fluorescence intensity of `GAAATTATAACAAAACAGGTGATAACCGTGATCTAGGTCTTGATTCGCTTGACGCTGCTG` is reported as 973 a.u.
`GAAAATATCTTAATTCACCTGTTTACTATCATGTAGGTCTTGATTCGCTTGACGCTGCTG` gave a fluorescence intensity of 526 a.u.
`GAATGTAAATATAATCACCACCTGCCGTAAGCCTAGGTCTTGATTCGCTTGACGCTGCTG` gave a fluorescence intensity of 566 a.u.
`CTATATATTATCCCTCTCCTGATAGTTTAATTATTCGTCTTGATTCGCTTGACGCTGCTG` gave a fluorescence intensity of 528 a.u.
For `GAATGGTCTGTTCTTAACGTGAAATGCTTTCCGTAGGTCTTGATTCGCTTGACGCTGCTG`, the fluorescence intensity was 501 a.u.
For `CTAAAGCGGGTAATAAACGTGTCTTTCGGTATTTTCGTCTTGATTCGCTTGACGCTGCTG`, the fluorescence intensity was 545 a.u.
`CTAGCTCTTGCTTTCGAGGTGACATAGCATTTTTTCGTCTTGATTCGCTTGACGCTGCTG` has a fluorescence intensity of 525 a.u.

Set 2
Target: Ras GTPase-activating protein-binding protein 1, C-terminal RGG region (G3BP1, Homo sapiens, UniProt Q13283)
Chain of UniProt Q13283 (whole entry, looked up): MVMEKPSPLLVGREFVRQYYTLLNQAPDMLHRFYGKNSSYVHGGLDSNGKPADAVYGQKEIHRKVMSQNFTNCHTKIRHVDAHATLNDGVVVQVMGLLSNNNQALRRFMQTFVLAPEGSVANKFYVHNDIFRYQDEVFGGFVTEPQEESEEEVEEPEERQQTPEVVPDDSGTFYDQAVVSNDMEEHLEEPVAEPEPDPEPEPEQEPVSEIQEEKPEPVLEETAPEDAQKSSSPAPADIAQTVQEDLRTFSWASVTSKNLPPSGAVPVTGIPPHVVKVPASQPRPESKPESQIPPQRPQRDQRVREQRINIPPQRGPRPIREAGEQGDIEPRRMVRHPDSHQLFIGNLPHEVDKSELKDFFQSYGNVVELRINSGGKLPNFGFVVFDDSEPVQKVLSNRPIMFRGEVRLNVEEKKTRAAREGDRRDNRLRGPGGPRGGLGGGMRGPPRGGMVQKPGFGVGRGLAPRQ
Method: RNA Bind-n-Seq
Form: RNA
Sample: in vitro
Tested at: 1 µM
Notes: whole 134-nt RNA, ends assumed
Added: 150 mM KCl
Relative to: input library
Reading: higher = stronger binding
`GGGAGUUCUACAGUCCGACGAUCUUUUACAACCCCAAUUUAAAGAAAGUUGUAGAGGCCCACAAGAUCGUUCUCUGCGCUGUAAGCCAUGUUUUCAUGCUGCUUUUCAAUGUGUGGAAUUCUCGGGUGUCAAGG` has a log2 enrichment of -1.43.
`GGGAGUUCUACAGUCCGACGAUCUCAAGUCCUGUGCUACACAUCGUAUGUACCGAAUCGGGUUUGGGAGGGAAAGGGAAAGUAUUAUGUUACGCCGUUCGGAUCUGCACUUCCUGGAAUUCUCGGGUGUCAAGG` gave a log2 enrichment of 2.02.
`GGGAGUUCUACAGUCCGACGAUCGUCCUGUGCUACACAUCGUAUGUACCGAAUCGGGGAAAGGGGAAAAAGGGGUUUGGGGAAAGUAUUAUGUUACGCCGUUCGGAUCUGCACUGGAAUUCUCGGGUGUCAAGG` has a log2 enrichment of 2.75.
With `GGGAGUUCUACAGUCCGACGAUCGUCCUGUGCUACACAUCGUAUGUACCGAAUCGGGUUUUUUUGGGAAAAAAAGGGUGGGAAAGUAUUAUGUUACGCCGUUCGGAUCUGCACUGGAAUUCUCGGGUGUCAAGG` the log2 enrichment was -0.0409.
With `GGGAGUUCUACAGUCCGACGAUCUUAUCUGUGGACUUCACCCAAAAGGAGUGGCAGCUACUGGAUCCCUCUCAGAAGAAUUUAUACAAGGAUGUGAUGUUGGAGAACUAUAGCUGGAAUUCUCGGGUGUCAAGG` the log2 enrichment was -1.03.
With `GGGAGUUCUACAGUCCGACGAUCCCUGUGCUACACAUCGUAUGUACCGAAUCGGGUUUUUUUGGGAAAAAAAGGGAAAAAGGGAAAGUAUUAUGUUACGCCGUUCGGAUCUGCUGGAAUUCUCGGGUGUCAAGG` the log2 enrichment was -2.15.
For `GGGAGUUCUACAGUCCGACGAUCUCCUGUGCUACACAUCGUAUGUACCGAAUCGGGGUUUUUGGGGAAAGGGGUUUUUGGGGAAAGUAUUAUGUUACGCCGUUCGGAUCUGCAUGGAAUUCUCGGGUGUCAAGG`, the log2 enrichment was 2.62.
`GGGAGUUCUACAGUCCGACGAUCUUCCUCAAGUCCUGUGCUACACAUCGUAUGUACCGAAUCGGUGGAGGUGGAAAGUAUUAUGUUACGCCGUUCGGAUCUGCACUUCCAGCAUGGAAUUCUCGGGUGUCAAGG` gave a log2 enrichment of -0.98.

Further values, each from its own experiment
`COc1cc2ncnc(Nc3cccc(Cl)c3)c2cc1OC` has a remaining activity of 91.7% (Dual specificity tyrosine-phosphorylation-regulated kinase 4 (DYRK4, Homo sapiens, UniProt Q9NR20); enzyme activity, inhibitor; 0.5 µM; relative to: control).
For `PhoQ, residues 284 288 289 292 302 303 NLCILV`, the fold induction was 7.35 (PhoP, residues 12 14 15 18 19 LHHVQ (Escherichia coli, UniProt P23836); Sort-seq, item: YFP reporter; E. coli; PhoQ-PhoP variant library, added: 10 µM Mg2+; relative to: high Mg2+ state, higher = stronger signaling).
